Measurements collected from several papers.
Numbers after ± are the reported error.
UniProt P45973, sequence (whole entry, looked up): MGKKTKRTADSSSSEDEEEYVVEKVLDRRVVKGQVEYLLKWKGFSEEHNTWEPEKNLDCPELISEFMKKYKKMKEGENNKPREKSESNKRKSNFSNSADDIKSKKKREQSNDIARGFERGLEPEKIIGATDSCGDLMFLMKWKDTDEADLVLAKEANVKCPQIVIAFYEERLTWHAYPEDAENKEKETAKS
UniProt Q05097, sequence (whole entry, looked up): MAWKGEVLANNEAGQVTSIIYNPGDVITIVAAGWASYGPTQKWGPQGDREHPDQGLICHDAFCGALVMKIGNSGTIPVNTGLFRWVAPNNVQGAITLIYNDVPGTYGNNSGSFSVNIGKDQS
UniProt O35082, sequence (whole entry, looked up): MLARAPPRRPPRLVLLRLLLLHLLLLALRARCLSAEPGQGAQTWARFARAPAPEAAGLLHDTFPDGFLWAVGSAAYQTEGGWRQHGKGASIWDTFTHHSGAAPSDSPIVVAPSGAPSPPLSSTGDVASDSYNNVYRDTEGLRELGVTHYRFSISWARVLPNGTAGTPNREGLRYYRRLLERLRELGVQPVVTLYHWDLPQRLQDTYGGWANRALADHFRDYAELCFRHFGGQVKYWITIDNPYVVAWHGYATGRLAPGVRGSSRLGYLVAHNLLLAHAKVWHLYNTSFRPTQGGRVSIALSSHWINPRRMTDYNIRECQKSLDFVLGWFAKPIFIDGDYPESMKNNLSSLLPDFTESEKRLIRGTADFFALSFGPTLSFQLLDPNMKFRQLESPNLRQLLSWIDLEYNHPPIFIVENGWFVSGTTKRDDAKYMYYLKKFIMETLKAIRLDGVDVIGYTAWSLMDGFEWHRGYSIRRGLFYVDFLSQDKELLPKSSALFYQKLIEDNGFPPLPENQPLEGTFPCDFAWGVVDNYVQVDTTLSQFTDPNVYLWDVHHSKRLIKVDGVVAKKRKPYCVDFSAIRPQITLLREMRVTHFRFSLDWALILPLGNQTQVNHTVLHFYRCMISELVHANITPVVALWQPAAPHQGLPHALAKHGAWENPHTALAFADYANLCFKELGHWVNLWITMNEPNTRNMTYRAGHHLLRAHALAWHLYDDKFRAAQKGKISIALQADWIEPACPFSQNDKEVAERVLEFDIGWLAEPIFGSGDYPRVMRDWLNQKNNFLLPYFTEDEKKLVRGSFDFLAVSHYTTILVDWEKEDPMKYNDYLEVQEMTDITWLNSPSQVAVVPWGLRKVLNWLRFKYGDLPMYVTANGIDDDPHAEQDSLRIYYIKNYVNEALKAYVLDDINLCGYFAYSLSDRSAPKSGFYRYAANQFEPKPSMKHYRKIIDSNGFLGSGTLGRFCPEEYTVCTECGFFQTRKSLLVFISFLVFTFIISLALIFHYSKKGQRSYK
UniProt P63165, sequence (whole entry, looked up): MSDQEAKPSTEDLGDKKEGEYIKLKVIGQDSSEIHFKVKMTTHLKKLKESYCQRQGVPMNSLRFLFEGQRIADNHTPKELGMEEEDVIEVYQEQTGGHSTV
UniProt P22455, sequence (whole entry, looked up): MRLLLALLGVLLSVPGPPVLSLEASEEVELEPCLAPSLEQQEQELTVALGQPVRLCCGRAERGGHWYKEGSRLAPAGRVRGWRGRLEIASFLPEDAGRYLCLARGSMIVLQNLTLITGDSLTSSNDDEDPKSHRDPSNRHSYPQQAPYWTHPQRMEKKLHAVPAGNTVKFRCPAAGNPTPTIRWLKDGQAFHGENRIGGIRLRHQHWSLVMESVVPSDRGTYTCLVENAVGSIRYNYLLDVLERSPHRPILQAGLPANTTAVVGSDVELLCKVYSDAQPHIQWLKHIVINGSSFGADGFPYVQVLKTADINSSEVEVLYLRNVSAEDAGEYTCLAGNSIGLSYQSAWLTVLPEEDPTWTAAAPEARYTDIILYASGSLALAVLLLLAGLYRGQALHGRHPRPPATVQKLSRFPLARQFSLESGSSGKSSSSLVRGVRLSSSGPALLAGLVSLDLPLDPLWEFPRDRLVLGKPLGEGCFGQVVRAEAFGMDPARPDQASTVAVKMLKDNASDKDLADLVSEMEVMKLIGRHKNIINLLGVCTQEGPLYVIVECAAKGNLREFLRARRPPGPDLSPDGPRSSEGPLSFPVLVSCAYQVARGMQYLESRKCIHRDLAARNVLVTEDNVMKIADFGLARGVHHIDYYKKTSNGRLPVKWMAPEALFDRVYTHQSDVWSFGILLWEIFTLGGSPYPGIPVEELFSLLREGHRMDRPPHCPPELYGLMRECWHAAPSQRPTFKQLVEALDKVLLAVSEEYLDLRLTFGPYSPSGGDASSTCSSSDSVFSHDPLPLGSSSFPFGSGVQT
UniProt Q9FIP9, sequence (whole entry, looked up): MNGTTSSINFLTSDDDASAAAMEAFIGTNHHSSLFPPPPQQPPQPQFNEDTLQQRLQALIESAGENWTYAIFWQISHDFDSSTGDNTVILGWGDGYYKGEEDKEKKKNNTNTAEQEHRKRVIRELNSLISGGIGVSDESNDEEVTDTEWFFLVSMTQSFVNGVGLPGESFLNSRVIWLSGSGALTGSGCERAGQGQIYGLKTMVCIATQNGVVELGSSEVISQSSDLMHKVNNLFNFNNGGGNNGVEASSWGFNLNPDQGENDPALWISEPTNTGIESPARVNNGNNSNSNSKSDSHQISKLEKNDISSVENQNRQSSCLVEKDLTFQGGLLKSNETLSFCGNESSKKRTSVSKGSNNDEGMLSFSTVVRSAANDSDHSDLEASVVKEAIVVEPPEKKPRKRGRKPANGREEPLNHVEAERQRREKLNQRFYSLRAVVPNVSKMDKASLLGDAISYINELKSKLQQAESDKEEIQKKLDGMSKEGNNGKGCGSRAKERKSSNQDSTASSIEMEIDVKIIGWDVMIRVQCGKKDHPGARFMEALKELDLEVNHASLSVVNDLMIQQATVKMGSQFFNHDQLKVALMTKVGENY
UniProt P10686, sequence (whole entry, looked up): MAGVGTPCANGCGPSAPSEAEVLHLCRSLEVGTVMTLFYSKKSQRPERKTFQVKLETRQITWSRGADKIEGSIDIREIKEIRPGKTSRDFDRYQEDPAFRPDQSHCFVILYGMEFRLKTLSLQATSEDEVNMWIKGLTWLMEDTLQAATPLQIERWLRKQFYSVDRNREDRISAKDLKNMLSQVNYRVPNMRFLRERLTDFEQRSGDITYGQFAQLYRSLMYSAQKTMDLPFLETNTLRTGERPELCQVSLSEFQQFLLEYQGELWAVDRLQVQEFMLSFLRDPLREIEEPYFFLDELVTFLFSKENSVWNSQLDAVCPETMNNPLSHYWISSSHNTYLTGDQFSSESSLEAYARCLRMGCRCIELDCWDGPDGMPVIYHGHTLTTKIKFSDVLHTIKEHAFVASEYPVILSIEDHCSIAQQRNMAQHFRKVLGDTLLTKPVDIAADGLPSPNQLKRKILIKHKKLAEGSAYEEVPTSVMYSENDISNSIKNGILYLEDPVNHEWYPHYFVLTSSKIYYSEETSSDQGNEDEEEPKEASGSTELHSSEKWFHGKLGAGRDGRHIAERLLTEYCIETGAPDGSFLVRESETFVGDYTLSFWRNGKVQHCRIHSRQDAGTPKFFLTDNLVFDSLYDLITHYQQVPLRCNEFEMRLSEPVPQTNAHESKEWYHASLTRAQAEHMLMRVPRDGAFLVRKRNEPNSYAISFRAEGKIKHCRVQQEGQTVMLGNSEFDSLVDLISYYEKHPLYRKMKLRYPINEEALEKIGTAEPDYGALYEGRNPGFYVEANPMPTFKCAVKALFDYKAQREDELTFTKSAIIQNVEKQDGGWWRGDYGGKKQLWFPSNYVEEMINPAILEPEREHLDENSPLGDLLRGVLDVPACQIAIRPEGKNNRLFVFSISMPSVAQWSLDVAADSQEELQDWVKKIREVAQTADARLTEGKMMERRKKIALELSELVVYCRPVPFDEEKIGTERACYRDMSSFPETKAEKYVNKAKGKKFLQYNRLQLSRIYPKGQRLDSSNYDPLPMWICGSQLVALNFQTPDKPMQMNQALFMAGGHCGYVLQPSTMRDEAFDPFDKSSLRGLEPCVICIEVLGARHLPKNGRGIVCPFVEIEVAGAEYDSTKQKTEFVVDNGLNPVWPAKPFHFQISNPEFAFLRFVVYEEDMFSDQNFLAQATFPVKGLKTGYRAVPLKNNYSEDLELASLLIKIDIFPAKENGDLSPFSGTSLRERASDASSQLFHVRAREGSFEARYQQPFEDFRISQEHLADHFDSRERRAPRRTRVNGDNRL
UniProt P53350, sequence (whole entry, looked up): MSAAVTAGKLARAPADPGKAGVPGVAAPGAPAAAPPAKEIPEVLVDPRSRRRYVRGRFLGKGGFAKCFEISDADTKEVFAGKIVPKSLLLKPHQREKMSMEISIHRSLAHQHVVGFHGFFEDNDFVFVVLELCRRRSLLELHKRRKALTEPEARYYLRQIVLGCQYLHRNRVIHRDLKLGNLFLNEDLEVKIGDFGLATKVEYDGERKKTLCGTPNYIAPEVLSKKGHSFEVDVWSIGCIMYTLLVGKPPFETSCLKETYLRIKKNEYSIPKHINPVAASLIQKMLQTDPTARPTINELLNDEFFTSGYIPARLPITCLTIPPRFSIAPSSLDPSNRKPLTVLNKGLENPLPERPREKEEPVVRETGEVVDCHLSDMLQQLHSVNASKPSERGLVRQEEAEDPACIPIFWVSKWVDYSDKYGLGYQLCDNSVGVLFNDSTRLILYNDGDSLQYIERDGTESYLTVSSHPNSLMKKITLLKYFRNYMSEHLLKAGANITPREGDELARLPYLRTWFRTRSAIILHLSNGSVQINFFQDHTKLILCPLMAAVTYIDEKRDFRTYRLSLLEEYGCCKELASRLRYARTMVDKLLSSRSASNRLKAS

Structure (SMILES)	target	assay	setting	Kd
CSCC[C@H](NC(C)=O)C(=O)N[C@@H](CC(=O)O)C(=O)N[C@@H](CO)C(=O)N[C@@H](CCCCN)C(=O)N[C@@H](Cc1ccc(O)cc1)C(=O)N[C@H](C(=O)N[C@H](C(=O)N[C@@H](CC(C)C)C(=O)N[C@@H](Cc1ccc(O)cc1)C(=O)N[C@@H](Cc1ccc(O)cc1)C(=O)N[C@@H](CCC(N)=O)C(=O)N[C@@H](CC(C)C)C(=O)N[C@@H](Cc1c[nH]c2ccccc12)C(=O)N[C@@H](Cc1c[nH]c2ccccc12)C(=O)N[C@@H](CCCCN)C(=O)NCC(=O)N[C@@H](CO)C(=O)NCC(=O)N[C@@H](CO)C(=O)NCC(=O)N[C@@H](CO)C(=O)N[C@@H](CC(=O)O)C(=O)N[C@@H](Cc1ccc(O)cc1)C(=O)N[C@@H](CCCCN)C(=O)N[C@@H](CC(=O)O)C(=O)N[C@@H](CC(=O)O)C(=O)N[C@@H](CC(=O)O)C(=O)N[C@@H](CC(=O)O)C(=O)N[C@@H](CCCCN)C(=O)N[C@@H](CCCCN=[N+]=[N-])C(N)=O)[C@@H](C)O)C(C)C	Fibroblast growth factor receptor 4 (FGFR4, Homo sapiens, UniProt P22455)	binding, BLI		56.1 nM
CC(C)C[C@H](NC(=O)[C@@H]1CCCN1C(=O)[C@H](CCCCN)NC(=O)C[C@@H]1O[C@@H](C)[C@@H](O)[C@@H](O)[C@@H]1O)C(=O)NCCCC[C@H](NC(=O)[C@H](CC(C)C)NC(=O)[C@@H]1CCCN1C(=O)[C@H](CCCCN)NC(=O)c1ccc(O[C@@H]2O[C@H](CO)[C@H](O)[C@H](O)[C@H]2O)cc1)C(=O)N[C@@H](Cc1ccccc1)C(=O)N[C@@H](CS)C(N)=O	PA-I galactophilic lectin (lecA, Pseudomonas aeruginosa, UniProt Q05097)	binding, ITC	pH 7.5	7340 nM
CC[C@H](C)[C@H](NC(=O)[C@@H](NC(=O)[C@H](Cc1c[nH]c2ccccc12)NC(=O)[C@H](CCC(=O)O)NC(=O)[C@H](CO)NC(=S)Nc1ccc2c(c1)C(=O)OC21c2ccc(O)cc2Oc2cc(O)ccc21)C(C)C)C(=O)N[C@H](C(=O)N[C@H](C(=O)N1CCC[C@H]1C(=O)N[C@@H](Cc1ccccc1)C(=O)N[C@@H](CC(C)C)C(=O)N[C@H](C(=O)N[C@@H](CC(N)=O)C(=O)N[C@@H](C)C(=O)O)[C@@H](C)O)[C@@H](C)CC)C(C)C	Rgg transcriptional regulator (Streptococcus pneumoniae, UniProt A0A0E7KI02)	binder, fluorescence polarization	20 min, pH 7.4, 20 °C, fluorescein-labelled peptide	3400 ± 300 nM
CSCC[C@H](NC(=O)[C@H](CO)NC(=O)[C@H](CC(C)C)NC(=O)[C@H](CC(=O)O)NC(=O)[C@H](CC(C)C)NC(=O)[C@H](Cc1ccc(OP(=O)(O)O)cc1)NC(=O)[C@H](CCC(=O)O)NC(=O)[C@H](CCC(N)=O)NC(=O)[C@H](CC(N)=O)NC(=O)[C@H](CO)NC(=O)[C@@H](N)[C@@H](C)O)C(N)=O	1-phosphatidylinositol 4,5-bisphosphate phosphodiesterase gamma-1, N-terminal SH2 domain (Rattus norvegicus, UniProt P10686)	N-SH2 domain binding, surface plasmon resonance		5670 ± 600 nM
CCN(CCCC[C@H](NC(=O)[C@H](Cc1c[nH]cn1)NC(=O)[C@H](C)NC(=O)[C@H](Cc1ccc(CN)cc1)NC(=O)c1cccnc1)C(=O)N[C@@H](CO)C(N)=O)C(C)C	Chromobox protein homolog 5, chromodomain (Homo sapiens, UniProt P45973)	isothermal titration calorimetry	25 °C	4950 nM
CC[C@@H]1C(=O)N(C)c2cnc(Nc3ccc(C(=O)NCCCC[C@H](NC(=O)[C@@H](NC(=O)[C@H](CO)NC(=O)[C@H](Cc4cncn4CCCCCCCCc4ccccc4)NC(=O)[C@H](CC(C)C)NC(=O)[C@@H]4CCCN4C(C)=O)[C@@H](C)CP(=O)(O)O)C(N)=O)cc3OC)nc2N1C1CCCC1	Serine/threonine-protein kinase PLK1 (PLK1, Homo sapiens, UniProt P53350)	binding		17 nM
CC(C)[C@H](NC(=O)[C@H](CCC(=O)O)NC(=O)[C@H](CCC(N)=O)NC(=O)[C@H](CO)NC(=O)[C@H](Cc1c[nH]cn1)NC(=O)[C@H](CCCNC(=N)N)NC(=O)[C@H](CC(N)=O)NC(=O)[C@H](Cc1c[nH]cn1)NC(=O)[C@@H](NC(=O)[C@@H](N)CCCCN)[C@@H](C)O)C(=O)N1CCC[C@H]1C(=O)N[C@@H](C)C(=O)O	Small ubiquitin-related modifier 1 (Homo sapiens, UniProt P63165)	binding, BLI		837 nM
CC(C)C[C@H](NC(=O)[C@H](CC(N)=O)NC(=O)[C@H](CC(N)=O)NC(=O)[C@@H]1CCCN1C(=O)[C@H](Cc1c[nH]c2ccccc12)NC(=O)[C@H](CC(N)=O)NC(=O)[C@@H](N)CC(C)C)C(=O)N[C@@H](CCC(=O)O)C(=O)NCC(=O)N[C@@H](CCCNC(=N)N)C(=O)N[C@@H](CC(=O)O)C(=O)N1CCC[C@H]1C(=O)N[C@@H](Cc1ccc(O)cc1)C(=O)N[C@@H](CC(N)=O)C(=O)N[C@@H](CCCNC(=N)N)C(=O)O	Prothrombin (F2, Homo sapiens, UniProt P00734)	binding, double-filter binding	1 h, room temperature	160 nM
CC(C)C[C@H](NC(=O)[C@H](CCCNC(=N)N)NC(=O)[C@H](CCC(=O)O)NC(=O)[C@H](CCCCN)NC(=O)[C@H](CCCNC(=N)N)NC(=O)[C@H](CCCCN)NC(=O)[C@]1(C)CCCC=CCCC[C@](C)(NC(=O)[C@H](CC(C)C)NC(=O)[C@H](CO)NC(=O)[C@H](C)NC(=O)[C@H](CCCCN)NC(=O)[C@H](CCCNC(=N)N)NC(=O)[C@H](C)NC(=O)[C@H](CCC(N)=O)NC(=O)[C@@H]2CCCN2C(=O)[C@@H](NC(=O)[C@H](CO)NC(=O)c2ccc3c(c2)C(=O)OC32c3ccc(N(C)C)cc3Oc3cc(N(C)C)ccc32)C(C)C)C(=O)N[C@@H](CCCNC(=N)N)C(=O)N[C@@H](Cc2ccccc2)C(=O)N[C@@H](CC(C)C)C(=O)N1)C(=O)O	Transcription factor MYC3 (MYC3, Arabidopsis thaliana, UniProt Q9FIP9)	binding, fluorescence anisotropy	pH 8.0, apparent Kd, together with: 100 nM TMR-labelled JAZ peptide	880 ± 200 nM
CC(C)C[C@H](NC(=O)[C@@H]1CCCN1C(=O)[C@H](CC(=O)O)NC(=O)[C@H](CO)NC(=O)[C@H](C)NC(=O)CC1c2ccccc2-c2ccccc21)C(=O)NCC(=O)N[C@H](C(=O)N[C@H](C(=O)N[C@@H](CCCNC(=N)N)C(=O)NCC(=O)N[C@@H](CCCNC(=N)N)C(=O)N[C@@H](C)C(N)=O)C(C)C)C(C)C	Klotho (Kl, Mus musculus, UniProt O35082)	BLI competition binding	30 min, 30 °C, together with: 100 nM mouse Klotho, immobilized Pep-10-Biotin	19 ± 13 nM
C#CC[C@H](NC(=O)CNC(=O)[C@H](CO)NC(=O)[C@H](CCCCN)NC(=O)[C@H](C)N(C)C(=O)[C@H](C)NC(=O)[C@@H](NC(=O)[C@@H](NC(=O)[C@H](CCCNC(=N)N)NC(=O)[C@H](Cc1c[nH]cn1)NC(=O)[C@@H]1CCCN1C(=O)[C@H](Cc1c[nH]c2ccccc12)NC(=O)[C@@H](N)CCSC)C(C)C)[C@@H](C)O)C(=O)O	Microtubule-associated protein 1 light chain 3 beta (Homo sapiens, UniProt Q9GZQ8)	fluorescence polarization		418 ± 154 nM
CC(=O)NC1C(OC2C(O)C(CO)OC(OC3C(O)C(CO)OC(OC4C(O)C(O)OC(CO)C4O)C3NC(C)=O)C2OC2OC(C)C(O)C(O)C2O)OC(CO)C(O)C1O (centres unmarked)	sly (Streptococcus suis, UniProt Q55996)	binding		5700 nM
CC[C@H](C)[C@H](NC(=O)CNC(=O)[C@H](CO)NC(=O)[C@H](C)NC(=O)[C@H](CC(C)C)NC(=O)[C@H](C)NC(=O)[C@H](CC(=O)O)NC(=O)[C@@H](NC(=O)[C@H](CCC(=O)O)NC(=O)[C@H](Cc1c[nH]cn1)NC(=O)[C@H](CCC(=O)O)NC(=O)[C@H](CC(=O)O)NC(=O)[C@H](Cc1ccccc1)NC(=O)[C@H](CC(=O)O)NC(=O)CNC(=O)[C@H](Cc1ccccc1)NC(=O)[C@@H](NC(=O)[C@@H](N)CC(C)C)[C@@H](C)O)C(C)C)C(=O)N[C@H](C(=O)N[C@@H](Cc1ccccc1)C(=O)NCC(=O)N[C@@H](CC(=O)O)C(=O)N[C@@H](Cc1ccccc1)C(=O)N[C@@H](CC(=O)O)C(=O)N[C@@H](CC(=O)O)C(=O)O)[C@@H](C)O	Ras GTPase-activating protein-binding protein 1, NTF2-like domain (G3BP1, Homo sapiens, UniProt Q13283, F33W)	binding		no binding
O=C(Cc1cccs1)N[C@H](B(O)O)c1cccc(C(=O)O)c1	Beta-lactamase ADC-7 (Acinetobacter baumannii, UniProt Q6DRA1)			90 nM
